Experimental data of several laboratories.
Parts stem from different laboratories: compare values within a part only. Changes are numbered by the printed parent chain.

Block 1
Target: RNA binding protein fox-1 homolog 2, RRM domain, GST-SBP tag (RBFOX2, Homo sapiens, UniProt O43251-10, residues 100-194)
Method: RNA Bind-n-Seq
Form: RNA
Medium: in vitro
Concentration: 365 nM
Setting: natural RNA segment, single round, ends assumed
Reference: no-protein control
Reading: higher = stronger binding
Construct (chain): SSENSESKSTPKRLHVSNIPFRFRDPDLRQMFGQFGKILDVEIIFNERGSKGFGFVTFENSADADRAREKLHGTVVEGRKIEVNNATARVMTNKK
`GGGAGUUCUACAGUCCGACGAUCGUGUAUUUCUUAAAAUACAACUUUGUGUUGUACUUUGAAAUAAAUGAUGCUUUUUUUCAAAAGCCUUAAUUGUUUUGUUUUGCUUUUUUACACUAGCUGCAUUUCCCACCUGGAAUUCUCGGGUGCCAA` — result for “RBNS enrichment (R)”: 0.694.
`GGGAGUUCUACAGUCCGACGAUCCUGUCACAGGAGGGAGUUGGGCUAGAUCAUCUUUAAGGUAGGUUCUAGCUUUGACAUCAUCUUGGGGGUUAGGCCAGAGGCUGGGAAGACUGGGUGGACUUUCUCAAUUGUGGAAUUCUCGGGUGCCAA` — result for “RBNS enrichment (R)”: 0.48.
Under “RBNS enrichment (R)”, `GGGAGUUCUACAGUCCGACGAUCUUGUGGGGAGUUCAAGAGGCCUUUUCCCCUUGAGGGUGUGGCUGUCCCCCUUUCAGGCGUGUGGCGUCAUUCAUGGAGGAAGUGCUGGCUCUACUUAGCACACGCACAGUUGGAAUUCUCGGGUGCCAA` is recorded as 0.488.
For `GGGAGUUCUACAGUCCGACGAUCCAGAGCCCAGGGCAUCCCAUGGGGGUGCUGCAGCCAGGAGGAGAGGAAAGGACAUGGGUAGCAAUUCUACCCAGAGCCUUCUCCUGCCUACAUUCCCUGGCCUGGCUCUCUGGAAUUCUCGGGUGCCAA`, “RBNS enrichment (R)” read 0.292.
For `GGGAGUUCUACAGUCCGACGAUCUCUGGUACUUGUAUUUUCUAUGUUAAAUGAUCUUUAUAUGUGUUGGAUUAACAAAUAUUUUGAGUUUCCUGAAAACAAACAGAAACAUUAAUGGUAUUGAAGUGUGUUAGUGGAAUUCUCGGGUGCCAA`, “RBNS enrichment (R)” read 0.357.
For `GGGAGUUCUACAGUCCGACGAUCAGAGCUUCAGGCCCAGACUGGGGCACCGAAGCUUUCAGCUUUGGGGGUCAUUCUACCAACAAUCAGUCCCUGAGGGUUCACAACACCCUGGAACCAAACAUCAGAAUGCAUGGAAUUCUCGGGUGCCAA`, “RBNS enrichment (R)” read 0.87.
For `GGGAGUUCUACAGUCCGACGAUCGAGGCGGGUGCCUUUCCACCUUAAGUUGCUUAUAGUAUUUAAGAUGCUAAAUGUUUUAAUCAAGAGAAGCACUGAUCUUAUAAUACGAGGAUAAGAGAUUUUCUCACAGGUGGAAUUCUCGGGUGCCAA`, “RBNS enrichment (R)” read 0.503.
Under “RBNS enrichment (R)”, `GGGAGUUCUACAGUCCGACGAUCCAGCUGAGACUGCUGAGUAAUCUGAAGGCGAGAGCAAGGAUAUACCAGCGAGGUCAGCCCCUCUAGAAUGUUUGCUGGAUGGUGGAAGAUGUAAAAUAUUACCUUCUCCCUGGAAUUCUCGGGUGCCAA` is recorded as 0.569.

Block 2
Target: ABI1, truncated, D143A, DHFR fusion (Arabidopsis thaliana)
Method: DHFR PCA, deep sequencing
Medium: yeast
Setting: methotrexate growth selection, single substitutions
Added: (+)-ABA 58 µM
Reference: wild-type fitted maximum
Reading: higher = stronger binding
Parent: PYL1, truncated, DHFR fusion (Arabidopsis thaliana); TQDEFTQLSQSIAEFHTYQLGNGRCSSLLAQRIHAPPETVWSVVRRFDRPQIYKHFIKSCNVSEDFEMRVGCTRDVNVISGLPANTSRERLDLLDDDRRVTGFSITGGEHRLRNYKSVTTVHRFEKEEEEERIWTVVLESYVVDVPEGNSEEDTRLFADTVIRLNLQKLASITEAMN
For `L8Y`, “relative binding score” read 69.7%.
For `L112N`, “relative binding score” read -4.64%.
`V161K` — result for “relative binding score”: -13.9%.
Under “relative binding score”, `T86K` is recorded as 70.4%.
`P83M` — result for “relative binding score”: 9.56%.
For `V62Y`, “relative binding score” read 54%.
Under “relative binding score”, `R24T` is recorded as 88.2%.
`D3W` — result for “relative binding score”: 80.4%.
`L169H` — result for “relative binding score”: 1.32%.
Under “relative binding score”, `L164E` is recorded as 56.1%.
`K116Q` — result for “relative binding score”: 85.6%.
`V70M`: “relative binding score” 55.2%.
Under “relative binding score”, `F66C` is recorded as 78.2%.
For `P37C`, “relative binding score” read 67.9%.
For `L156W`, “relative binding score” read 79.6%.
Under “relative binding score”, `R155P` is recorded as 5.55%.
For `N85D`, “relative binding score” read 82.3%.

Block 3
Target: CCNA1, cyclin fold, Cln2 fusion (human)
Method: yeast growth competition, sequencing
Medium: yeast
Setting: weak parent motif
Reference: not given
Reading: higher = stronger binding
Parent: CDKN1B docking peptide (human); PSACRNLFGPVDH
For `F8L`, “normalised enrichment score” read 0.308.
`N6P` — result for “normalised enrichment score”: -0.0506.
`G9P`: “normalised enrichment score” 0.0912.
`A3M`: “normalised enrichment score” 0.368.
Under “normalised enrichment score”, `A3N` is recorded as 0.394.
For `G9M`, “normalised enrichment score” read 0.335.
`P10N`: “normalised enrichment score” 0.286.
Under “normalised enrichment score”, `N6M` is recorded as 0.25.
`P1G`: “normalised enrichment score” 0.213.
For `P1T`, “normalised enrichment score” read 0.576.
`N6K` — result for “normalised enrichment score”: 0.214.
`D12F`: “normalised enrichment score” 0.423.
`S2L` — result for “normalised enrichment score”: 0.451.
`H13T` — result for “normalised enrichment score”: 0.331.
Under “normalised enrichment score”, `D12P` is recorded as 0.0846.

Block 4
Target: RING finger protein unkempt homolog, zinc fingers 1-6, GST-SBP tag (UNK, Homo sapiens, UniProt Q9C0B0, residues 30-357)
Chain of UniProt Q9C0B0 (30-357, looked up): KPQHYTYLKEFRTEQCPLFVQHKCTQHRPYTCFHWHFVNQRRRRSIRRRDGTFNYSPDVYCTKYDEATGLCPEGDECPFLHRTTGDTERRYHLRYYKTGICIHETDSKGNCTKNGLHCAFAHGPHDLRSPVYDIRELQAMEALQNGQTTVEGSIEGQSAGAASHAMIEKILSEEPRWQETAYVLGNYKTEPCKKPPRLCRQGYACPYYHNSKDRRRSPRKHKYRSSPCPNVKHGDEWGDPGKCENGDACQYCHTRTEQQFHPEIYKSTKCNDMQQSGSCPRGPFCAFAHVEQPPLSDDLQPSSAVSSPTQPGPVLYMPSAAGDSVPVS
Method: RNA Bind-n-Seq
Form: RNA
Medium: in vitro
Concentration: not given
Setting: RNA with constant flanks, human and mouse sites, ends assumed
Reference: input RNA pool
Reading: higher = stronger binding
With `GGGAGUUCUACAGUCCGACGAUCAGUUUGGAUCUUGAUAGCUGCACUCUUUCAGAAAUCCUCAGACUGCACAUCUUAGCUUCAGGUGCUGAUGUAACAUCAGCAAAUGCAAAGUAUAGAUAUCAAAAACGAGGAGGAUUUGAUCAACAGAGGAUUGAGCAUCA` the bound/input enrichment was 0.13 ratio.
For `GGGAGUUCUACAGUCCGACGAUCGAACAGUUUGUCCAGCUCCUUUCCGUAUCCUGUUGAACAUAUCAGGCAAACAGCGCCCAUCUUAGAACCUGCUCCCAGCAUUUACACUGUGGGAAUAAAGGUAGGCAGGGCUGUGCUGGGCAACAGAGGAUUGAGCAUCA`, the bound/input enrichment was 0.171 ratio.
For `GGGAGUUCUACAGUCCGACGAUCUAUUUUUUGUAACCACUGUCUUAAUGGCAAAAUAAUUAUGGUAAAAUACAAGUCUCGUGUUUAUUAUUCCUUAAGAAGUCUGUGUUAUAUUACCACGGAACACCCAAUAAAGCAAAAUGUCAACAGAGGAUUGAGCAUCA`, the bound/input enrichment was 0.306 ratio.
`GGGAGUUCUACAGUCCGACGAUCGCACUUGGCAAUGUAAUAAGUGCCUUGGGAGACAAGAGCAAGAGGGCCACACAUGUCCCCUAUAGAGAUUCCAAGCUAACAAGACUACUACAGGAUUCCCUCGGGGGUAAUAGCCAAACACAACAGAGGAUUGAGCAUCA` has a bound/input enrichment of 0.261 ratio.
With `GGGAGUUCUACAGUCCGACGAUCCAGGGCAUCAUCUCUCGUGCUGUUAGACACCUGUUCAAGAGUAUUGAUGAGAAAAAGACCUCAGCGAUUAAAAACGGGCUGCCCCCUCCUGAAUUCAAAGUGAAUGCCCAGUUCCUAGAGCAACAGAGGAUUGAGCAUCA` the bound/input enrichment was 0.22 ratio.
`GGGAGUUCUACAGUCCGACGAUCAAAUUAUUAUUAUGCAACCACAAGGAUCUCUUCUUUCUCAGGGUGUCUAAGCUGCUGGAUUGCUUUUCGCCCAAAUCAAUGUGGUUUCUUUGGAACAUUUUCAGCAAAGGAACGCAUAUGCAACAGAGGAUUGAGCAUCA` has a bound/input enrichment of 0.511 ratio.
With `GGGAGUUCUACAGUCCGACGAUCAAAAUAAAAAUGCAAAUGGUGGAGAAAAAUAUGGAACAACAAAAAGAAAACAUGGAGAAUCUUAAAAGUCUAAAAAUUGAAGCAGAAAAUAAGUAUGAUACAAUUAAAUUGAAGAUUAAUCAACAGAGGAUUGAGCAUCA` the bound/input enrichment was 0.681 ratio.
The bound/input enrichment of `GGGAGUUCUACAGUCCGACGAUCCAGGACACCAUUAGCAGGGGCUCAGAUGACUCAGUGCCAGUUAUUUCAUUUAAAGAUGCUGCUUUUGAUGAUGUCAGUGGUACUGAUGAAGGAAGACCUGAUCUUCUUGUAAAUUUACCUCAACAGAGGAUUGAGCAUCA` is reported as 0.802 ratio.

Excerpt of the above (block 3):
`P10N`: “normalised enrichment score” 0.286.
Under “normalised enrichment score”, `N6M` is recorded as 0.25.
`P1G`: “normalised enrichment score” 0.213.
